Assay results pooled from the literature.
Protocols differ between the studies behind these lines. Several values in a cell are separate wells, animals, samples, runs or records. Values after ≈ are worked out from the molar mass of the structure shown.
UCHL1: Ubiquitin carboxyl-terminal hydrolase isozyme L1 (UCHL1, Homo sapiens, UniProt P09936)
Sequence of UniProt P09936 (whole entry, looked up): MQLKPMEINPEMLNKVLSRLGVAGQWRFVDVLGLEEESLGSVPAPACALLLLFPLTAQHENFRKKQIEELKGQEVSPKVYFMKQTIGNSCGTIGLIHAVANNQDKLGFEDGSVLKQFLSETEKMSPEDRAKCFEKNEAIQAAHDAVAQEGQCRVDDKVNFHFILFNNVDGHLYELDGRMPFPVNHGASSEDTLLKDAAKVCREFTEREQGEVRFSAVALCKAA

COc1cccc(C(=O)C#Cc2ccc(F)c(F)c2)c1 — biofilm formation (Pseudomonas aeruginosa; static biofilm; PA14; 10 µM, 24 h; baseline: DMSO): 83%
OC[C@H]1O[C@@H](O[C@@H]2[C@@H](O)[C@H](O[C@@H]3[C@@H](O)[C@H](O[C@@H]4[C@@H](O)[C@H](O[C@H]5[C@H](O)[C@@H](CO)OC(O)[C@@H]5O)O[C@H](CO)[C@H]4O)O[C@H](CO)[C@H]3O)O[C@H](CO)[C@H]2O)[C@H](O)[C@@H](O)[C@@H]1O (stereo partly shown) — ΔH (Bacteroides uniformis; binding, ITC; pH 7.0, 25 °C, middle domain): -41.1 kcal/mol
Cc1ccc(NC(=O)CCC(=O)N/N=C/c2ccc([N+](=O)[O-])o2)cc1C — inhibition (Trypanosoma cruzi; reporter translation, Renilla luciferase mRNA translation; cell-free extract; 40 µM; baseline: DMSO): -3.6%
O=C(Nc1ccncc1)c1cc([N+](=O)[O-])ccc1Cl — EC90 (Toxoplasma gondii; parasite growth, luciferase reporter; HFF, tachyzoite; 72 h): 1.68 µM
Nc1nc(-c2ccccc2)nc2[nH]nc(Nc3ccc(C(F)(F)F)cc3)c12 — clinical score (coxsackievirus B3; 31-1-93, NMRI mice, CVB3 chronic myocarditis; oral, 100 mg/kg twice daily, day 9, dosed days 1 to 7, score scale 0 to 7; direction not given): 0.33
OC[C@H]1O[C@@H](O[C@@H]2[C@@H](O)[C@H](O[C@@H]3[C@@H](O)[C@H](O[C@@H]4[C@@H](O)[C@H](O[C@@H]5[C@@H](O)[C@H](O[C@H]6[C@H](O)[C@@H](CO)OC(O)[C@@H]6O)O[C@H](CO)[C@H]5O)O[C@H](CO)[C@H]4O)O[C@H](CO)[C@H]3O)O[C@H](CO)[C@H]2O)[C@H](O)[C@@H](O)[C@@H]1O (stereo partly shown) — ΔG (Bacteroides uniformis; binding, ITC; pH 7.0, 25 °C, middle domain): -26.9 kcal/mol
CCc1nc(N)nc(N)c1-c1ccc(Cl)cc1 — parasite survival (Toxoplasma gondii; [3H]uracil incorporation; human fibroblasts, RH wild type; 25 µM): 25.1%
CC(C)n1ncc2c(C(=O)NCC3(C)CNC3)cc(C3CC3)nc21 — cell protection (Enterovirus D68; cytopathic effect; RD, US/KY/14-18953; 15 nM): -0.845% and 0.282% and 0.423%
CCN(Cc1ccc(C#CCCO)cc1)CC1CCCN(CCc2cccc(F)c2)C1 (stereo not shown) — inhibition (Trypanosoma cruzi; reporter translation, Renilla luciferase mRNA translation; cell-free extract; 40 µM; baseline: DMSO): -15.9%
Clc1ccc(C(c2ccc(Cl)cc2)n2cc[n+](CC(OCc3ccc(Cl)cc3Cl)c3ccc(Cl)cc3Cl)c2)cc1 (stereo not shown) — EC50 (Toxoplasma gondii; parasite growth, luciferase reporter; HFF, tachyzoite; 72 h): 7750 nM
COc1cc(C#CC(=O)c2ccc(Cl)cc2)ccc1O — biofilm formation (Pseudomonas aeruginosa; static biofilm; PA14; 10 µM, 24 h, static; baseline: DMSO): 65%
Cc1ccc2[nH]c3c(c2c1)CCCC3N(C)C(=O)CCl (stereo not shown) — labelling (UCHL1; covalent, intact protein LC-MS; 12.5 µM): 12.7%
O=C(C#Cc1ccc(F)c(F)c1)c1ccc(Cl)cc1 — biofilm formation (Pseudomonas aeruginosa; static biofilm; PA14; 10 µM, 24 h, static; baseline: DMSO): 62%
Cc1cc(Nc2ccc(S(F)(F)(F)(F)F)cc2)n2nc(C(C)(F)F)nc2n1 — parasite clearance lag phase (Plasmodium vivax; microscopy; infected human patients; dose not given): ≤ 40 h
Oc1ncnc2[nH]ncc12 — EC90 (Toxoplasma gondii; parasite growth; HFF, bradyzoite, glutamine-induced): 30 µM
Cc1ccc(C)c(-c2cc(NC(=O)CCl)n(-c3ccccc3)n2)c1 — labelling (UCHL1; covalent, intact protein LC-MS; 12.5 µM): 13.8%
COc1cc(C#CC(=O)c2cccc(Cl)c2)ccc1O — biofilm formation (Pseudomonas aeruginosa; static biofilm; PA14; 10 µM, 24 h; baseline: DMSO): 67%
OC(Cn1cncn1)(Cn1cncn1)c1ccc(F)cc1F — MIC (Cryptococcus neoformans; 134, RPMI 1640; 24 h, 35 °C): 25 µM (≈ 7.66 µg/mL)
C=C1C(=O)O[C@H]2[C@H]1CC/C(C)=C/CC[C@@]1(C)O[C@@H]21 — EC90 (Toxoplasma gondii; parasite growth; HFF, bradyzoite, alkaline-induced): 0.325 µM
OC[C@H]1O[C@@H](O[C@@H]2[C@@H](O)[C@H](O[C@@H]3[C@@H](O)[C@H](O[C@H]4[C@H](O)[C@@H](CO)OC(O)[C@@H]4O)O[C@H](CO)[C@H]3O)O[C@H](CO)[C@H]2O)[C@H](O)[C@@H](O)[C@@H]1O (stereo partly shown) — ΔG (Bacteroides uniformis; binding, ITC; pH 7.0, 25 °C, middle domain): -26.9 kcal/mol
Cc1ccccc1C(=O)C#Cc1ccc(F)c(F)c1 — biofilm formation (Pseudomonas aeruginosa; static biofilm; PA14; 10 µM, 24 h, static; baseline: DMSO): 71%
CC[C@H]1CN2CCc3cc(OC)c(OC)cc3[C@@H]2C[C@@H]1C[C@H]1NCCc2cc(OC)c(OC)cc21 — EC50 (Toxoplasma gondii; bradyzoite growth; pH 8.2, alkaline-induced bradyzoites): 2500 nM
COc1cc(C#CC(=O)c2cccc(C)c2)ccc1O — biofilm formation (Pseudomonas aeruginosa; static biofilm; PA14; 10 µM, 24 h; baseline: DMSO): 77%
COCCOC(=O)C1=C(C)NC(C)=C(C(=O)OC/C=C/c2ccccc2)C1c1cccc([N+](=O)[O-])c1 (stereo not shown) — EC90 (Toxoplasma gondii; parasite growth, luciferase reporter; HFF, tachyzoite; 72 h): 1520 µM
COc1cc(C#CC(=O)CC(C)C)ccc1O — mRNA level (Pseudomonas aeruginosa; RT-qPCR, measured: rhlA; biofilm cells; 10 µM, 24 h; baseline: untreated): 57%
O=C1c2ccccc2C(=O)c2c(NCCc3ccc(O)cc3)ccc(NCCc3ccc(O)cc3)c21 — EC50 (Toxoplasma gondii; parasite growth; HFF, bradyzoite, alkaline-induced): 941 nM
COc1cc(C#CC(=O)c2ccccc2)ccc1O — mRNA level (Pseudomonas aeruginosa; RT-qPCR, measured: rhlA; biofilm cells; 10 µM, 24 h; baseline: untreated): 16%
O=c1[nH]cc(F)c(=O)[nH]1 — EC90 (Toxoplasma gondii; parasite growth; HFF, bradyzoite, glutamine-induced): 30 µM

Excerpt of the above:
COc1cc(C#CC(=O)c2cccc(Cl)c2)ccc1O — biofilm formation (Pseudomonas aeruginosa; static biofilm; PA14; 10 µM, 24 h; baseline: DMSO): 67%
Nc1nc(-c2ccccc2)nc2[nH]nc(Nc3ccc(C(F)(F)F)cc3)c12 — clinical score (coxsackievirus B3; 31-1-93, NMRI mice, CVB3 chronic myocarditis; oral, 100 mg/kg twice daily, day 9, dosed days 1 to 7, score scale 0 to 7; direction not given): 0.33
Cc1ccc2[nH]c3c(c2c1)CCCC3N(C)C(=O)CCl (stereo not shown) — labelling (UCHL1; covalent, intact protein LC-MS; 12.5 µM): 12.7%
COc1cc(C#CC(=O)c2ccccc2)ccc1O — mRNA level (Pseudomonas aeruginosa; RT-qPCR, measured: rhlA; biofilm cells; 10 µM, 24 h; baseline: untreated): 16%
